Published values pooled from the literature.
Numbered parts are unrelated; each lists some results of a single study.

Set 1
Target: Interferon regulatory factor 5, full length, phosphomimetic (IRF5, Homo sapiens, UniProt Q13568-2, residues 1-514, S451D/S453D/S456D/S462D)
Technique: protein-binding microarray
Form: double-stranded DNA, one strand shown
Medium: in vitro
Tested at: 940 nM top
Setting: 60-bp whole probe
Added: salmon DNA 0.4 mg/ml
Relative to: random background probes
Direction: higher = stronger binding
Shared flanks, not repeated: GCCTAGCAC … GTCTTGATTCGCTTGACGCTGCTG
Under “fitted relative affinity”, `TCAGCTTCCTCTTTTTTACTGTGCTAG` is recorded as 1.24 z-score.
`CACGGTTTCGGTATCGGGACGTGCTAG`: “fitted relative affinity” 12.8 z-score.
Under “fitted relative affinity”, `TTAGATCTCAGTCTCGTTTAGTGCTAG` is recorded as 2.04 z-score.
`TTTACTAGGAGTTTTCAGTCCGTGCTA` — result for “fitted relative affinity”: -0.149 z-score.
`GACGGTGTCGGTTTCGGGACGTGCTAG`: “fitted relative affinity” 3.88 z-score.
Under “fitted relative affinity”, `TCAACTCTCTGCTTGTAACTGTGCTAG` is recorded as 1.59 z-score.
For `TTAGGACTGCTACTGCTCTAGTGCTAG`, “fitted relative affinity” read -0.334 z-score.

Set 2
Target: Histone acetyltransferase KAT6A, winged helix 2, GST fusion (KAT6A, Homo sapiens, UniProt Q92794, residues 85-181)
Technique: protein binding microarray
Form: double-stranded DNA, one strand shown
Medium: in vitro
Tested at: not given
Setting: 8-mer, flanks averaged, mean of 2 arrays, mostly near background
Relative to: not given
Direction: higher = stronger binding
Construct (chain): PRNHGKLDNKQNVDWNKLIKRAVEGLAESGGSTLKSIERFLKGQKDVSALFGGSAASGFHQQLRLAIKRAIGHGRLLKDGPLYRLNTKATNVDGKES
`AGGAGAAA` gave an E-score of -0.0826.
The E-score of `AGGACTAC` is reported as -0.159.
For `GCCGATCA`, the E-score was 0.159.
The E-score of `ACCGAGCG` is reported as 0.194.
`CACGCTAA` has an E-score of -0.177.
The E-score of `GGTAGTTA` is reported as -0.11.
The E-score of `TATACAGA` is reported as 0.0399.
The E-score of `ACAGTGAT` is reported as -0.196.

Set 3
Target: Sal-like protein 4, full length isoform B (SALL4, Homo sapiens, UniProt Q9UJQ4-2, residues 1-616)
Technique: universal PBM
Form: double-stranded DNA, one strand shown
Medium: in vitro
Tested at: not given
Setting: 8-mer, flanks averaged, mean of replicates
Direction: higher = stronger binding
With `CTTAGTAA` the E-score was 0.0653.
The E-score of `CGCGTGCC` is reported as -0.295.
The E-score of `AGCTTGAC` is reported as -0.209.
The E-score of `CTGAACAA` is reported as 0.0696.
For `CCCAGGGG`, the E-score was -0.391.

Other studies, line by line
For `PhoQ, residues 284 288 289 292 302 303 SACGEM`, the fold induction was 17.3 (PhoP, residues 12 14 15 18 19 LYFRQ (Escherichia coli, UniProt P23836); Sort-seq, refers to: YFP reporter; E. coli; PhoQ-PhoP variant library, added: 10 µM Mg2+; relative to: high Mg2+ state, higher = stronger signaling).

Some of these lines once more (set 2):
`CACGCTAA` has an E-score of -0.177.
The E-score of `GGTAGTTA` is reported as -0.11.
